Results from different studies.
Each numbered part is a random draw from the data of one study; scales do not carry over between parts. Changes are numbered by the printed parent chain.

Series 1 — method: RNA Bind-n-Seq; molecule type: RNA; matrix: in vitro; concentration: 200 nM; notes: whole 134-nt RNA, ends assumed; added: 150 mM KCl; reference: input library; reading: higher = stronger binding; measurement: log2 enrichment
Target: Ras GTPase-activating protein-binding protein 1, full length (G3BP1, Homo sapiens, UniProt Q13283)
Sequence of UniProt Q13283 (whole entry, looked up): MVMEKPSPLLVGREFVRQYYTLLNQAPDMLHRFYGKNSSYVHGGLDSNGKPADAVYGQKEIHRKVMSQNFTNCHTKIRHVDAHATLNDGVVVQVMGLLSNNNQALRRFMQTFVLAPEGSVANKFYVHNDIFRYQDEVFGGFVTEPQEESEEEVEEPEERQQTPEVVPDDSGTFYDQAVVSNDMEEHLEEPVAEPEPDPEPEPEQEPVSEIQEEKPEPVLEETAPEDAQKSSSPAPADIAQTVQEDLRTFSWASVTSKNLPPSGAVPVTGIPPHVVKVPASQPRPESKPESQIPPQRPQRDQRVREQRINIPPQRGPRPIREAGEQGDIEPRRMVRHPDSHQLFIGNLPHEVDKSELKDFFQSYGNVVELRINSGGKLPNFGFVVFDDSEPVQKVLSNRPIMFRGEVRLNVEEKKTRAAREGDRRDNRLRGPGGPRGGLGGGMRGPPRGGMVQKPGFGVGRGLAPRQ
Constant ends, left off below: GGGAGUUCUACAGUCCGACGAUC … UGGAAUUCUCGGGUGUCAAGG
CAAGUCCUGUGCUACACAUCGUAUGUACCGAAUCGGCCCCGGGCCCCGGGCCCCGGAAAGUAUUAUGUUACGCCGUUCGGAUCUGCACUU: -0.755
UCCUUUGUGUUUACAAAAGCACUGACCCUUUACCUUUUCUUUAGCAAGAAGAAUGGAAUGAACAUAAUGCCAAAAUAAUUAAAUAUAUAA: 0.703
AGUCCUGUGCUACACAUCGUAUGUACCGAAUCGGGAAAAAGGGUUUUUGGGUUUGGGAAAGUAUUAUGUUACGCCGUUCGGAUCUGCACU: -0.412
UAACUUUAGAGGAGGAUCUGAUGGAUAUGGCAGUGGACGUGGAUUUGGGGAUUGCUAUAAUGGGUAUGGAGGAGGACCUGGAGGUGGCAA: 0.381
AAGUCCUGUGCUACACAUCGUAUGUACCGAAUCAAACCCAAACCCCCAAAUUUAAAAAAGUAUUAUGUUACGCCGUUCGGAUCUGCACUU: -0.468
CACAGACAACACGCACCCACACAGACACAGAGGGAAGGGGUUGGGAUGGGGACAGGGUGCACAGCAGGGCGGGGUAGGACCAAAGCCCCU: 1.79
UGUGCUACACAUCGUAUGUACCGAAUCGGGGAAAAAAAGGGGUUUUUUUGGGGAAAAAGGGGAAAGUAUUAUGUUACGCCGUUCGGAUCU: -0.215
GUCCUGUGCUACACAUCGUAUGUACCGAAUCGGGGAAAAAGGGGAAAGGGGAAAGGGGAAAGUAUUAUGUUACGCCGUUCGGAUCUGCAC: 0.652
GUCCUGUGCUACACAUCGUAUGUACCGAAUCGGUUUUUUUGGAAAAAGGAAAAAAAGGAAAGUAUUAUGUUACGCCGUUCGGAUCUGCAC: -1.06
CUCAAGUCCUGUGCUACACAUCGUAUGUACCGAAUCGGGGAGGAGGGGAGGGGAAAGUAUUAUGUUACGCCGUUCGGAUCUGCACUUCCA: 0.996
UAACUUUAGAGGAGGAUUUGAUGGAUAUGGCAGUGGACGUGGAUUUGGGGAUGGCUAUAAUGGGUAUGGAGGAGGACCUGGAGGUGGCAA: 0.359
UCCUGUGCUACACAUCGUAUGUACCGAAUCGGUUUUUUUGGUUUUUUUGGUUUUUUUGGAAAGUAUUAUGUUACGCCGUUCGGAUCUGCA: -0.527
UCUCUCUCUUUCCCUCUAGGGUCACAUCUCCCAGGAAGAUCUCACUUCCCCACAGAAGCUCUUGGCCUGGCCUCCUGCAGUGCCACGCUC: 1.02
UCCUGUGCUACACAUCGUAUGUACCGAAUCGGGGAAAAAAAGGGGUUUGGGGAAAGGGGAAAGUAUUAUGUUACGCCGUUCGGAUCUGCA: 0.869

Series 2 — method: protein binding microarray; molecule type: double-stranded DNA, one strand shown; matrix: in vitro; concentration: not given; reference: not given; reading: higher = stronger binding; measurement: E-score
Target: Histone acetyltransferase KAT6A, winged helix 1, GST fusion (KAT6A, Homo sapiens, UniProt Q92794, residues 1-85)
Notes: 8-mer, flanks averaged, mean of 2 arrays, mostly near background
Construct (chain): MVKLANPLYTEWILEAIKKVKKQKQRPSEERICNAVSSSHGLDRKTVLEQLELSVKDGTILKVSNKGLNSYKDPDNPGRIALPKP
CCAGCCCA: -0.17
GGCGCGCC: 0.436
GAGGTTAC: 0.0746
CCCGTGGA: 0.239
CGGAGTAC: 0.179
ACGTCCGG: 0.135
AACCACCG: 0.0977
TCGACCGA: 0.171
TGGGTAAA: -0.1
ATAATGTG: -0.115
AGTAACAC: 0.0463
AGGCTTTG: -0.085
AGGCTCCA: -0.108
TCCCAGCA: -0.115
TCGTTGCA: -0.21
AAAGCCTC: -0.219
CGCCGGCC: 0.455
CCACCTCC: -0.149
GTGTATAA: -0.0454
GCGATTCC: 0.238
TAGGTGAA: -0.3
ATGACCAC: 0.0214
CCCAGTCA: -0.157
CTAGTCCA: -0.15
AATACCTG: -0.0879

Series 3 — method: RNA Bind-n-Seq; molecule type: RNA; matrix: in vitro; concentration: not given; reference: input RNA pool; reading: higher = stronger binding; measurement: bound/input enrichment
Target: RING finger protein unkempt homolog, zinc fingers 1-6, GST-SBP tag (UNK, Homo sapiens, UniProt Q9C0B0, residues 30-357)
Sequence of UniProt Q9C0B0 (30-357, looked up): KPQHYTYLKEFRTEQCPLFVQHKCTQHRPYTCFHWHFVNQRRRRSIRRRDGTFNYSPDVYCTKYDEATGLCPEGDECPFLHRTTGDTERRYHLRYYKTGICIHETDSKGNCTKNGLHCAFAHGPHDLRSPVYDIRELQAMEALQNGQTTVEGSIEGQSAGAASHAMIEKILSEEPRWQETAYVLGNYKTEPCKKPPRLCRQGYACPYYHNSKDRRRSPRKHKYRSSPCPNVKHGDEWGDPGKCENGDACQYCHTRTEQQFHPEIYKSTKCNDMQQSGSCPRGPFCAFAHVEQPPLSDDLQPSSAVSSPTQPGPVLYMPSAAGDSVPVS
Notes: RNA with constant flanks, human-mouse chimeric sites, ends assumed
Constant ends, left off below: GGGAGUUCUACAGUCCGACGAUC … CAACAGAGGAUUGAGCAUCA
UGGCGCCUGCGCUCCCCACUCGUGUUUUUAAGUGUAUUUUUAUAAGAUACAUGUAUUUGUAAUAGAUCUUUUGUUACAUAAUGCUGAAAUGCUACUGCAAUAUUAUGAAAAUGUUUCAAU: 0.254 ratio
UGGCGCCUGCGCUCCCCACUCGUGUUUUUAAGUGUAUUUUUAUAAGAUACAUGUAUUUGUAAUAGAUCUUUUGUUACAUAAUGCUGAAAUGCUACUGGAGAUUAUGAAAAAUGUUUCAAU: 0.395 ratio
UUAAUCCCCUUUACUGCUCCCCCACUUCUCAUGGUAAUAACAAAGUCUUAUAUUCCCGUCCUAGCUUUCACUCAGAUGGCUUAUGGAGCCGGUUUCCUAGCUUUCUUGGGUGGGAUCAGA: 0.493 ratio
AGAAAGCAAAACUUGGAACGAUUUAAGAAAGGAGACGUAAGAUUCUUGAUUUGCACAGAUGUAGCUGCUAGAGGGAUUGAUAUCCAUGGCGUUCCUUAUGUUAUAAAUGUCACUCUGCCU: 0.184 ratio
ACUCUUGACUCUUUCCAUCCUCUUCCUUUCCCUCUUGAUCUUCAAGGCCAUGAAUCCCAAAAUAACAGUCUUAGUGGCUAGCACCCAAACAGAGGUGGAAUAAAUCCACCCCAGUGUCUC: 0.622 ratio
AAAGUGGACUAUGGCGAGUACAUGGAUAAAAACAAUGUGAGGCGGCAAGCAACAACAAUCAUAGCUGAUAAUAUUAUAUUUCUGAGUGACCAGACAAAAGAAAAGGCGUAGAAAGGAUGA: 7.97 ratio
GUAUUUGUGCGCUCCCCGUUUUUAAAUUUAAGUGUAUUUUUAUAAGAUACAUGUAUUUACAAUUGAGCUUUUGUUACAUAAUGCUGAAAUGCUACUGGAGAUUAUGAAAAAUGUUUCAAU: 0.359 ratio
AAAGAGUGGAUAGAGUGUGCACACGGGAUCGGUUAUACCCGGGCGAAAAAGGAGUGCAAGAUAGAGUUCGAUGACUUCGAAGAGUGCUUGCUUCGGUACAAAACGAUGAGGCGAAUGCAU: 0.442 ratio

Series 4 — method: universal PBM; molecule type: double-stranded DNA, one strand shown; matrix: in vitro; concentration: not given; reading: higher = stronger binding; measurement: E-score
Target: Sal-like protein 4, full length isoform B (SALL4, Homo sapiens, UniProt Q9UJQ4-2, residues 1-616)
Notes: 8-mer, flanks averaged, mean of replicates
Residues (chain): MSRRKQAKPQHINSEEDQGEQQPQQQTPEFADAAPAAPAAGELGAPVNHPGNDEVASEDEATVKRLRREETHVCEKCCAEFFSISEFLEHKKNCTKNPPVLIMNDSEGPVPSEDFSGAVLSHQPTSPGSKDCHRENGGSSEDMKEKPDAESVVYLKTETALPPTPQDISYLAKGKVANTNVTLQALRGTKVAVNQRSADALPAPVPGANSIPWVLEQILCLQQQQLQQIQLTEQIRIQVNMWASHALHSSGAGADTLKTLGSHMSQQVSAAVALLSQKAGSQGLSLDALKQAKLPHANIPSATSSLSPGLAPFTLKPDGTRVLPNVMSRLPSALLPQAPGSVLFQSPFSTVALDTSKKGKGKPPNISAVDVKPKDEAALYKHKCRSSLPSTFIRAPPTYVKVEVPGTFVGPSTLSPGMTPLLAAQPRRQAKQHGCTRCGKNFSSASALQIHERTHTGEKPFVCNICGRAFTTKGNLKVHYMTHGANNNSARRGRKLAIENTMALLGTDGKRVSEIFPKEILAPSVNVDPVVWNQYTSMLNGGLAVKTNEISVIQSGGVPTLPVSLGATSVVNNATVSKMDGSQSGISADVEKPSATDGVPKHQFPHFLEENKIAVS
AAAATGGG: 0.11
CCACTCTA: -0.00898
AGGTACTC: 0.0358
CTGTAGCA: 0.0342
ATGGTTAA: 0.186
AGTCTTGC: 0.0522
CGGGCGAA: -0.155
GACGGGAC: -0.281
ACATTCCC: 0.0835
ACCGGCGG: -0.29
CAGTGCAC: -0.217
AATCTCTA: 0.156
CCTCGGAG: -0.301
AGCTGTAT: 0.0917
ATCGCAAA: 0.11
ATCTACAT: 0.208
CGTGTAGC: 0.0164
ACCGTGGC: -0.255
AACTAGAG: 0.0262
AAACAGAG: -0.0371
ACAGGACC: -0.232
CCATTGAG: 0.1
AAATAAAG: 0.164
ATTCCCTC: -0.0846
GAACCAGA: -0.0534

Series 5 — method: DHFR PCA, deep sequencing; matrix: yeast; added: (+)-ABA 2500 µM; reference: wild-type fitted maximum; reading: higher = stronger binding; measurement: relative binding score
Target: ABI1, truncated, D143A, DHFR fusion (Arabidopsis thaliana)
Notes: methotrexate growth selection, single substitutions
Starting sequence: PYL1, truncated, DHFR fusion (Arabidopsis thaliana); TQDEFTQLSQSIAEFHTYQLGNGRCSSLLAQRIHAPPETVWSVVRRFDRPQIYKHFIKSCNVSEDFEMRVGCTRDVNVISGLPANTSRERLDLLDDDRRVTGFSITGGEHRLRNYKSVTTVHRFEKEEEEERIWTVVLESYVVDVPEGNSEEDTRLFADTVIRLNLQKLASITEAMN
E131L: 102%
K54P: 9.44%
F66I: 94.3%
K116V: 89.1%
M176S: 97.8%
V100P: -19.2%
C72D: 97.7%
T120H: 56.7%
V161R: -3.7%
Q2L: 103%
K54W: -1.77%
T39E: 96.5%
E89W: -14.9%
R113D: 100%
E67M: 93.7%
R111C: 79.9%
S63K: 99.4%
N114Q: 90.4%
N77Y: 99.6%

Further values, each from its own experiment
PhoQ, residues 284 288 289 292 302 303 ASASEQ — fold induction (PhoP, residues 12 14 15 18 19 TPWLV (Escherichia coli, UniProt P23836); Sort-seq, measured: YFP reporter; E. coli; PhoQ-PhoP variant library, added: 10 µM Mg2+; reference: high Mg2+ state, higher = stronger signaling): 0.759

Some of these lines once more (series 5):
F66I: 94.3%
K116V: 89.1%
M176S: 97.8%
V100P: -19.2%
C72D: 97.7%
T120H: 56.7%
V161R: -3.7%
Q2L: 103%
K54W: -1.77%
T39E: 96.5%
E89W: -14.9%
R113D: 100%
E67M: 93.7%
